Measured values of several laboratories.
A part holds a random share of what one study measured. “And” joins repeats or separate records; there may be more than shown.

Sample 1
Compound: CN1CCN(c2cnc3c(C4CCN(C(=O)c5ccc(OC(F)(F)F)cc5N)CC4)ncnc3c2)CC1
Effect on: cell-free assay
Technique: competition with immobilised ligand
Concentration: 1 µM
target	remaining binding
Dual specificity mitogen-activated protein kinase kinase 3 (MAP2K3, Homo sapiens, UniProt P46734)	94%
Phosphorylase b kinase gamma catalytic chain, skeletal muscle/heart isoform (PHKG1, Homo sapiens, UniProt Q16816)	100%
Ribosomal protein S6 kinase alpha-1, C-terminal kinase domain (RPS6KA1, Homo sapiens, UniProt Q15418)	100%
Mitogen-activated protein kinase kinase kinase 2 (MAP3K2, Homo sapiens, UniProt Q9Y2U5)	100%
Tyrosine-protein kinase JAK2, JH1 (JAK2, Homo sapiens, UniProt O60674)	83%
Receptor tyrosine-protein kinase erbB-2 (ERBB2, Homo sapiens, UniProt P04626)	100%
Mitogen-activated protein kinase kinase kinase 9 (MAP3K9, Homo sapiens, UniProt P80192)	100%
Serine/threonine-protein kinase PAK 6 (PAK6, Homo sapiens, UniProt Q9NQU5)	100%
NUAK family SNF1-like kinase 2 (NUAK2, Homo sapiens, UniProt Q9H093)	90%
Serine/threonine-protein kinase Nek9 (NEK9, Homo sapiens, UniProt Q8TD19)	100%
Tyrosine-protein kinase ABL1, phosphorylated (ABL1, Homo sapiens, UniProt P00519, T315I)	100%
Testis-specific serine/threonine-protein kinase 3 (TSSK3, Homo sapiens, UniProt Q96PN8)	68%
Mitogen-activated protein kinase 10 (MAPK10, Homo sapiens, UniProt P53779)	100%
Serine/threonine-protein kinase WNK2 (WNK2, Homo sapiens, UniProt Q9Y3S1)	100%
Serine/threonine-protein kinase Nek1 (NEK1, Homo sapiens, UniProt Q96PY6)	85%
Serine/threonine-protein kinase pim-2 (PIM2, Homo sapiens, UniProt Q9P1W9)	100%
Non-receptor tyrosine-protein kinase TYK2, JH2 (TYK2, Homo sapiens, UniProt P29597)	100%
High affinity nerve growth factor receptor (NTRK1, Homo sapiens, UniProt P04629)	100%
Serine/threonine-protein kinase 25 (STK25, Homo sapiens, UniProt O00506)	92%
Cyclin-dependent kinase 8 (CDK8, Homo sapiens, UniProt P49336)	100%
Serine/threonine-protein kinase pim-3 (PIM3, Homo sapiens, UniProt Q86V86)	100%
Serine/threonine-protein kinase D1 (PRKD1, Homo sapiens, UniProt Q15139)	85%
Mitogen-activated protein kinase 7 (MAPK7, Homo sapiens, UniProt Q13164)	0.1%
Cyclin-dependent kinase 16 (CDK16, Homo sapiens, UniProt Q00536)	100%
Epidermal growth factor receptor (EGFR, Homo sapiens, UniProt P00533)	99%

Sample 2
SMILES: O=C1CCC(N2Cc3cc(C4CCN(Cc5ccccc5)CC4)ccc3C2=O)C(=O)N1 (centres unmarked)
Mode: degrader
Technique: HiBiT
Zinc finger protein Aiolos: Zinc finger protein Aiolos (Homo sapiens, UniProt Q9UKT9)
IKZF4: Zinc finger protein Eos (IKZF4, Homo sapiens, UniProt Q9H2S9)
DNA-binding protein Ikaros: DNA-binding protein Ikaros (Homo sapiens, UniProt Q13422)
target	system	setting	remaining protein
Zinc finger protein Aiolos	HEK293	0.3704 µM	82.5% and 84.3%
IKZF4	HEK293	0.03704 µM, 3 h	124%
Eukaryotic peptide chain release factor GTP-binding subunit ERF3A (GSPT1, Homo sapiens, UniProt P15170)	HEK293	0.3704 µM	108% and 84.1%
Zinc finger protein Aiolos	HEK293	0.01372 µM, 6 h	85.5%
DNA-binding protein Ikaros	HEK293	0.3704 µM, 6 h	86.2%
DNA-binding protein Ikaros	HEK293	0.1235 µM	97.1% and 94.5%
Casein kinase I isoform alpha (CSNK1A1, Homo sapiens, UniProt P48729)	HEK293 HiBiT-CK1α	13.72 nM	95% and 90.7%
DNA-binding protein Ikaros	HEK293	0.3704 µM	99.6% and 86.2%
Zinc finger protein Aiolos	HEK293	0.04115 µM	87.9% and 94.5%
IKZF4	HEK293	0.3333 µM, 6 h	111%
Zinc finger protein Aiolos	HEK293	0.004572 µM	90.4% and 83.8%
Zinc finger protein Aiolos	HEK293	0.04115 µM, 6 h	94.5%
Zinc finger protein Aiolos	HEK293	0.001524 µM, 6 h	88.9%
Zinc finger protein Aiolos	HEK293	0.3704 µM, 6 h	82.5%

Sample 3
Compound: C[C@@H]1CN(c2ccc(-c3cc(C(=O)NCCOCCOCCOCCOCCNC(=O)/C=C/c4[nH]cc(C(=O)N[C@@H](CC(N)=O)c5ccc(F)c(Cl)c5)c4-c4ccc(Cl)cc4F)ccc3F)cc2NC(=O)c2c[nH]c(=O)cc2C(F)(F)F)C[C@H](C)N1C
Mode: degrader
Time: 24 h
WDR5: WD repeat-containing protein 5 (WDR5, Homo sapiens, UniProt P61964)
WDR5/DCAF1: WDR5/DCAF1 (Homo sapiens, UniProt P61964+Q9Y4B6)
target	assay	setting	how to read	remaining protein level
WDR5	Jess capillary immunoassay, measured: WDR5 over vinculin	2 nM	relative to: DMSO	94.7% and 101% and 113% and 112% and 96.9% and 97.4%
WDR5	Jess capillary immunoassay, measured: WDR5 over vinculin	60.3 nM	relative to: DMSO	79.6% and 74.9% and 112% and 60.7% and 97.8% and 64.8%
WDR5	Jess capillary immunoassay, measured: WDR5 over vinculin	4.69 nM	relative to: DMSO	101% and 110% and 99.6% and 95% and 99.8% and 94.1%
WDR5	Jess capillary immunoassay, measured: WDR5 over vinculin	10000 nM	relative to: DMSO	95.1% and 48.2% and 85% and 39.9% and 64.7% and 81.3%
WDR5	Jess capillary immunoassay, measured: WDR5 over vinculin	1821 nM	relative to: DMSO	51.2% and 50.5% and 87.1% and 64.4% and 56.4% and 77.8%
WDR5/DCAF1	HiBiT luminescence	3800 nM		72.5% and 69.6% and 78%
WDR5	Jess capillary immunoassay, measured: WDR5 over vinculin	25.7 nM	relative to: DMSO	103% and 99.4% and 78.6% and 78.3% and 89.4% and 84.1%
WDR5/DCAF1	HiBiT luminescence	585 nM		87.4% and 78.1% and 66.7%

Sample 4
Target: Diamine acetyltransferase 1 (Homo sapiens, UniProt P21673)
Mode: inhibitor
Concentration: 10 µM
Relative to: control
Construct (P21673 1-171): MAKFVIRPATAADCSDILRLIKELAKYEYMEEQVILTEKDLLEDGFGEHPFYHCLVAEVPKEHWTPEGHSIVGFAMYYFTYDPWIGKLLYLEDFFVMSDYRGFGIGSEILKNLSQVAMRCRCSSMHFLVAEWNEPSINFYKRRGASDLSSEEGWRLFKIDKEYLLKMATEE
Structure (SMILES)	remaining activity [%]
CC(C)[C@H](N)C(=O)O	91.3
CC1=CC(=O)[C@H]2C[C@@H]1C2(C)C	99.9
CCCCCCCCCC(C)O (centres unmarked)	103
C=C(C)[C@@H]1CC[C@]2(C)CC[C@]3(C)[C@H](CC[C@@H]4[C@@]5(C)CCC(=O)C(C)(C)[C@@H]5CC[C@]43C)[C@@H]12	83.3
COc1cc([C@H]2OC[C@H]3[C@@H]2CO[C@@H]3c2ccc(O[C@@H]3O[C@H](CO)[C@@H](O)[C@H](O)[C@H]3O)c(OC)c2)ccc1O[C@@H]1O[C@H](CO)[C@@H](O)[C@H](O)[C@H]1O	99.8
O=CCc1ccccc1	103
C[C@H](CC[C@@H](O[C@@H]1O[C@H](CO[C@@H]2O[C@H](CO)[C@@H](O)[C@H](O)[C@H]2O)[C@@H](O)[C@H](O)[C@H]1O[C@@H]1O[C@H](CO)[C@@H](O)[C@H](O)[C@H]1O)C(C)(C)O)[C@H]1CC[C@@]2(C)[C@@H]3CC=C4[C@@H](CC[C@H](O[C@@H]5O[C@H](CO[C@@H]6O[C@H](CO)[C@@H](O)[C@H](O)[C@H]6O)[C@@H](O)[C@H](O)[C@H]5O)C4(C)C)[C@]3(C)[C@H](O)C[C@]12C	101
CC(CC(=O)C[C@@H](C)[C@H]1CC(=O)[C@@]2(C)C3=C(C(=O)[C@@H](O)[C@]12C)[C@@]1(C)CC[C@H](O)C(C)(C)[C@@H]1C[C@@H]3O)C(=O)O (some centres unmarked)	91.8
O=c1cc(-c2ccc(O)cc2)oc2c([C@@H]3O[C@H](CO)[C@@H](O)[C@H](O)[C@H]3O)c(O)c([C@@H]3O[C@H](CO)[C@@H](O)[C@H](O)[C@H]3O)c(O)c12	119
CC(C)=C1C/C=C(\C)CC/C=C(\C)CC1=O	83.9
O=C(/C=C/C=C/c1ccc2c(c1)OCO2)N1CCCCC1	108
O=c1c(-c2ccc(O)cc2)coc2cc(O)ccc12	107

Some of these lines once more (sample 1):
target	remaining binding
Dual specificity mitogen-activated protein kinase kinase 3 (MAP2K3, Homo sapiens, UniProt P46734)	94%
Serine/threonine-protein kinase pim-3 (PIM3, Homo sapiens, UniProt Q86V86)	100%
Phosphorylase b kinase gamma catalytic chain, skeletal muscle/heart isoform (PHKG1, Homo sapiens, UniProt Q16816)	100%
Mitogen-activated protein kinase kinase kinase 2 (MAP3K2, Homo sapiens, UniProt Q9Y2U5)	100%
NUAK family SNF1-like kinase 2 (NUAK2, Homo sapiens, UniProt Q9H093)	90%
Serine/threonine-protein kinase Nek1 (NEK1, Homo sapiens, UniProt Q96PY6)	85%
